Results gathered from unrelated publications.
Every numbered part comes from another study and shows a few of its results, in no order. Substitutions count along the parent as printed.

Sample 1
Target: ABI1, truncated, D143A, DHFR fusion (Arabidopsis thaliana)
Method: DHFR PCA, deep sequencing
Sample: yeast
Setting: methotrexate growth selection, single substitutions
Together with: (+)-ABA 0.11 µM
Relative to: wild-type fitted maximum
Reading: higher = stronger binding
Parent: PYL1, truncated, DHFR fusion (Arabidopsis thaliana); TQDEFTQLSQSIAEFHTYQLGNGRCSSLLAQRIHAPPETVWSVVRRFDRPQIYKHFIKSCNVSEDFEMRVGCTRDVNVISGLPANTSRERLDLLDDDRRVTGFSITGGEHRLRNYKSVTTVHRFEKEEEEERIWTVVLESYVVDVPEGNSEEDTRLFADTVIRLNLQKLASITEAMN
| Change | relative binding score [%] |
| --- | --- |
| T120I | -4.94 |
| R123V | -0.869 |
| H34S | 24.6 |
| Q51G | 4.64 |
| D48H | -9.99 |
| Q10N | 31.9 |

Sample 2
Target: Histone acetyltransferase KAT6A, both winged helices, GST fusion (KAT6A, Homo sapiens, UniProt Q92794, residues 1-181)
Method: protein binding microarray
Form: double-stranded DNA, one strand shown
Sample: in vitro
Tested at: not given
Setting: 8-mer, flanks averaged, mean of 2 arrays, mostly near background
Relative to: not given
Reading: higher = stronger binding
Construct (chain): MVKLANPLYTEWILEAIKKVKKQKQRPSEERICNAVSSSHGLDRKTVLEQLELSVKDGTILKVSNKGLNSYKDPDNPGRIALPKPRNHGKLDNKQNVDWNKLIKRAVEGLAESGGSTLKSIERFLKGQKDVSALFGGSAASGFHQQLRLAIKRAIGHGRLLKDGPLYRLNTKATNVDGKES
| Sequence | E-score |
| --- | --- |
| AGCGAGAG | -0.00199 |
| AGTTTCGA | -0.0268 |
| AGATACAG | -0.0568 |
| GGAGACGA | 0.0423 |
| GCGAAAAA | 0.0974 |
| CTATCAGC | -0.0462 |
| AGGTCATC | 0.0629 |
| ATGTTGAA | -0.00154 |

Sample 3
Target: CCNA2, cyclin fold, Cln2 fusion (human)
Method: yeast growth competition, sequencing
Sample: yeast
Setting: weak parent motif
Relative to: not given
Reading: higher = stronger binding
Parent: SLBP docking peptide (human); ARYKRKLLINDFG
| Change | normalised enrichment score |
| --- | --- |
| R5M | 1.6 |
| L7M | 1.28 |
| I9K | 2.11 |
| G13W | 1.39 |
| G13H | 1.07 |
| L8N | 1.57 |

Further values, each from its own experiment
| Molecule | target | test | test system | setting | scale | endpoint | result |
| --- | --- | --- | --- | --- | --- | --- | --- |
| PhoQ, residues 284 288 289 292 302 303 AEGLLW | PhoP, residues 12 14 15 18 19 STWGI (Escherichia coli, UniProt P23836) | Sort-seq, measured: YFP reporter | E. coli | PhoQ-PhoP variant library, together with: 10 µM Mg2+ | relative to: high Mg2+ state, higher = stronger signaling | fold induction | 1.5 |

A few entries again (sample 2):
| Sequence | E-score |
| --- | --- |
| AGCGAGAG | -0.00199 |
| GCGAAAAA | 0.0974 |
| AGGTCATC | 0.0629 |
